Published values from different studies.
Numbered parts are unrelated; each lists some results of a single study.
Chain of UniProt P28482 (whole entry, looked up): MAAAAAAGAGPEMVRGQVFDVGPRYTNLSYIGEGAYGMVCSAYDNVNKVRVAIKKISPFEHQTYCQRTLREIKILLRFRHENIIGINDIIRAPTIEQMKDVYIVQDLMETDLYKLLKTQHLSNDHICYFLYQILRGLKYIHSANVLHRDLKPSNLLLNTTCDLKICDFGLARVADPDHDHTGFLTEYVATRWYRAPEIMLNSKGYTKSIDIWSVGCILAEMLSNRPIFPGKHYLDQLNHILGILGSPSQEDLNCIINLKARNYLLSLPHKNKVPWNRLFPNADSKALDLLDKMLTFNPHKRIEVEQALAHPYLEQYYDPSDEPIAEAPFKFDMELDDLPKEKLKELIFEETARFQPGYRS
Chain of UniProt Q5S007 (whole entry, looked up): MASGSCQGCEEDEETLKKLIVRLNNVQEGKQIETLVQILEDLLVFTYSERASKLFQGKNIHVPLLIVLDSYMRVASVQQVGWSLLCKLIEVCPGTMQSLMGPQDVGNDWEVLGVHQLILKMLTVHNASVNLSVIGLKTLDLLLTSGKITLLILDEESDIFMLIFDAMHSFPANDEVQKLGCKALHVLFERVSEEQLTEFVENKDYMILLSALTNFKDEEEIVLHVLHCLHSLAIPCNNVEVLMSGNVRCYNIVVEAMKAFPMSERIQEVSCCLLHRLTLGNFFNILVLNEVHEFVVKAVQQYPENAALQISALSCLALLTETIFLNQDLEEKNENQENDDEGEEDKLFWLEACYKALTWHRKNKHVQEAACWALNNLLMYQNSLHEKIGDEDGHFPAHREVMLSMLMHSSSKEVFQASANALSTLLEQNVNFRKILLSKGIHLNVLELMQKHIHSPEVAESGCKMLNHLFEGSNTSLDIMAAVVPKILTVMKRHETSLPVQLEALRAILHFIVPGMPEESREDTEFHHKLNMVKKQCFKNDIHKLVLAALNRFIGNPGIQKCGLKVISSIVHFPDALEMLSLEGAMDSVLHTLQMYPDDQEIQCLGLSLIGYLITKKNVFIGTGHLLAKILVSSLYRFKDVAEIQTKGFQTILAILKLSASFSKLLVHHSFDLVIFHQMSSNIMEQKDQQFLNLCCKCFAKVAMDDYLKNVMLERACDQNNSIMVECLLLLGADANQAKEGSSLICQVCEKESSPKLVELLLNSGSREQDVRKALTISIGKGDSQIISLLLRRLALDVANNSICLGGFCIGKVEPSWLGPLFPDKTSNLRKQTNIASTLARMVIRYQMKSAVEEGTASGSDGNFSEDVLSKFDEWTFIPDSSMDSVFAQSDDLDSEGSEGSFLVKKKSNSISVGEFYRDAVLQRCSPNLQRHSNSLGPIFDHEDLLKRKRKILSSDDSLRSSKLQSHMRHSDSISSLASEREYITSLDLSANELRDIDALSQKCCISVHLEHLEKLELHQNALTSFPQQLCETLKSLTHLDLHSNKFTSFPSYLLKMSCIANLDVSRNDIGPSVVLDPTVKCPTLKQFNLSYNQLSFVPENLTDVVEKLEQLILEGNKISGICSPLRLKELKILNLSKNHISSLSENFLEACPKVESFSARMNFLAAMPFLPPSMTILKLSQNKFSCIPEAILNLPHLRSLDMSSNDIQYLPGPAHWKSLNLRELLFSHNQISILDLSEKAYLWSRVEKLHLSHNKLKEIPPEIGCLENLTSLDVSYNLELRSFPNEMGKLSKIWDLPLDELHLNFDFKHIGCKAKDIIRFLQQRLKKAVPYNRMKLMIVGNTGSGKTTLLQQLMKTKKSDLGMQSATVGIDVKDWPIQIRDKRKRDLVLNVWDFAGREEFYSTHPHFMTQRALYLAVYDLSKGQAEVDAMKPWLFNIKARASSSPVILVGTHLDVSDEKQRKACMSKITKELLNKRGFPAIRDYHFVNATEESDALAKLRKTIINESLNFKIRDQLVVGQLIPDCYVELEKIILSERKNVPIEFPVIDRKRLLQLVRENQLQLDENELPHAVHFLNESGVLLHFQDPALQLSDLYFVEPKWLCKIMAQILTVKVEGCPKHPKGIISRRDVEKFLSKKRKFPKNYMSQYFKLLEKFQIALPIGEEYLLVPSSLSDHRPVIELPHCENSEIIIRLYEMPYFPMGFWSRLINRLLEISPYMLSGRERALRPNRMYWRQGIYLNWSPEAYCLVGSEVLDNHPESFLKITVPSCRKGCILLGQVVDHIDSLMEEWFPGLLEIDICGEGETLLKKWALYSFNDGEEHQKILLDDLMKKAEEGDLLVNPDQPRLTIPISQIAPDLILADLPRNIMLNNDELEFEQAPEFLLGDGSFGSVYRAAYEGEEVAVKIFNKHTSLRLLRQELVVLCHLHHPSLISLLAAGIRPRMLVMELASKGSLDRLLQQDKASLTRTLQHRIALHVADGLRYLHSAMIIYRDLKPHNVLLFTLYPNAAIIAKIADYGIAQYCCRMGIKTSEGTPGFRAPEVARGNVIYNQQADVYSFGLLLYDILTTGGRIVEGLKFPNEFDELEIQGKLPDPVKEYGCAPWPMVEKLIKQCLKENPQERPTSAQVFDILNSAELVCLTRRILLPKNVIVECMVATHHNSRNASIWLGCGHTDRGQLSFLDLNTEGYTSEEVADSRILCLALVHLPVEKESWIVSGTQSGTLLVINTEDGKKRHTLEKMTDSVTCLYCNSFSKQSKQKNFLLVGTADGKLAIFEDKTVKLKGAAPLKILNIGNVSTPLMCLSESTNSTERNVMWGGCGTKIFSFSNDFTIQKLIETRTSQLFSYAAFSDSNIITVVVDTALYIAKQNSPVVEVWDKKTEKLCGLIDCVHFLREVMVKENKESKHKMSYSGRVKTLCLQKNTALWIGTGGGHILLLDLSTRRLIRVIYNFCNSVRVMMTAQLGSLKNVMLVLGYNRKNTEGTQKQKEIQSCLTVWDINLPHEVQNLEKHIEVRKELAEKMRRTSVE
Chain of UniProt P16591 (whole entry, looked up): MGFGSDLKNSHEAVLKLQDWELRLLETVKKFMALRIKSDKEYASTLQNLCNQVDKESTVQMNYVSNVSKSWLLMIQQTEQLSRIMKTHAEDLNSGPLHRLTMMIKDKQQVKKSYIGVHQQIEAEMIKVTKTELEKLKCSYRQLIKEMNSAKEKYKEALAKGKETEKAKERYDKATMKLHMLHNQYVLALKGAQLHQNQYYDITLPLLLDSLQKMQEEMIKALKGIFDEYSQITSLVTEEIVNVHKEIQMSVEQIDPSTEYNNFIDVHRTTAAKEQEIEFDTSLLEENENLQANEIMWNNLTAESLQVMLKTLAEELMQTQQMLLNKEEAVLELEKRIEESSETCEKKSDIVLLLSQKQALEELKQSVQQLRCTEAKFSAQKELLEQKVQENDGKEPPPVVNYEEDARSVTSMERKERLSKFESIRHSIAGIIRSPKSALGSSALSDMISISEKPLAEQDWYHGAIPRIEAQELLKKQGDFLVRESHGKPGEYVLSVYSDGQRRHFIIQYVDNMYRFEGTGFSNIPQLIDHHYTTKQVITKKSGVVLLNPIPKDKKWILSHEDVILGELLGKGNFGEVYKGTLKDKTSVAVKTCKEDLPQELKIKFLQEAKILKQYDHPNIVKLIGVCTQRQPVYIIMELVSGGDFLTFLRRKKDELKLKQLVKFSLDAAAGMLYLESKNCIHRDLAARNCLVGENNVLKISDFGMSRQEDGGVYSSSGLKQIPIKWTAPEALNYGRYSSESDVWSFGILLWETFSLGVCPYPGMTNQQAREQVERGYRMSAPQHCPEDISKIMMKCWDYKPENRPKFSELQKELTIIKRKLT
Chain of UniProt Q13464 (whole entry, looked up): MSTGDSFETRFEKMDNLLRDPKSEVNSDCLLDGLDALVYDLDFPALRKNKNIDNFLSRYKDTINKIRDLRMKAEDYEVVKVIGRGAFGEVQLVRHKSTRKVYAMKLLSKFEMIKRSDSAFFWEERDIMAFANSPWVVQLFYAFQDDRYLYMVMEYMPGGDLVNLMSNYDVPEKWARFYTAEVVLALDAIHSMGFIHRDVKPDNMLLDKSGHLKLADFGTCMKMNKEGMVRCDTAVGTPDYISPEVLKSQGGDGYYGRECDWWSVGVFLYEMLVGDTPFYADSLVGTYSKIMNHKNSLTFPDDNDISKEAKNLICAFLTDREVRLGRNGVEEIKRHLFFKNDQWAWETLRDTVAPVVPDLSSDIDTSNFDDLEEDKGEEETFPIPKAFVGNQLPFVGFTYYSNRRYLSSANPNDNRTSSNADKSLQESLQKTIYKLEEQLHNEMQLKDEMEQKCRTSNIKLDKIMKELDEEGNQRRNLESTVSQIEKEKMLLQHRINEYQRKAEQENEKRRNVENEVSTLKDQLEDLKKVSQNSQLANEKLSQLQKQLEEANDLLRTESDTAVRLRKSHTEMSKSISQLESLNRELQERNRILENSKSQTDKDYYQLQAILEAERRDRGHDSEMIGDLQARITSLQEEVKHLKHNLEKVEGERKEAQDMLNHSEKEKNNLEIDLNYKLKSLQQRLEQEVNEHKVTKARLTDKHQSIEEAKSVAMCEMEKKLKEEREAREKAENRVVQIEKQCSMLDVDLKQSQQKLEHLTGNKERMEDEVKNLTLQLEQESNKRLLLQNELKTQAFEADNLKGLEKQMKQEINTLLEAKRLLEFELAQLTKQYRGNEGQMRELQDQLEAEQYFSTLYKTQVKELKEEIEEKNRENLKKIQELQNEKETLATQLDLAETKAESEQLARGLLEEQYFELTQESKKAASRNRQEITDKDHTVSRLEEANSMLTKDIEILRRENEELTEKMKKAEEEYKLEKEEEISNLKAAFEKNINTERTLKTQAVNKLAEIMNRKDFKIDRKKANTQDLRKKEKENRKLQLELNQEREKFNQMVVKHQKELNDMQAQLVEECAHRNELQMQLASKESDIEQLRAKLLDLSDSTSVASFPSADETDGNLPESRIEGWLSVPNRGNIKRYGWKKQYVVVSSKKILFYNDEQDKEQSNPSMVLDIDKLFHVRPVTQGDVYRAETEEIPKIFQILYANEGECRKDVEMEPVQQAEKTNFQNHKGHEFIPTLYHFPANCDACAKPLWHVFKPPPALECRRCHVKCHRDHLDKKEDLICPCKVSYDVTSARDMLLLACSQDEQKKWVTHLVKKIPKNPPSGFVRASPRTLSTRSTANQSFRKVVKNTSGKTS

Study 1
SMILES: CCN(CC)CCNC(=O)c1c(C)[nH]c(/C=C2\C(=O)Nc3ccc(Cl)cc32)c1C
Effect on: enzyme activity
Mode: inhibitor
Concentration: 0.5 µM
Baseline: control
| target | remaining activity [%] |
| --- | --- |
| CAMK4 (Homo sapiens, UniProt Q16566) | 95 |
| RPS6KA4 (Homo sapiens, UniProt O75676) | 59 |
| PLK3 (Homo sapiens, UniProt Q9H4B4) | 89.8 |
| DDR2 (Homo sapiens, UniProt Q16832) | 104 |
| ROCK1 (Homo sapiens, UniProt Q13464) | 89.7 |
| MARK4 (Homo sapiens, UniProt Q96L34) | 7.19 |
| AKT2 (Homo sapiens, UniProt P31751) | 86.9 |
| CLK4 (Homo sapiens, UniProt Q9HAZ1) | 16.8 |
| MAP2K1 (Homo sapiens, UniProt Q02750) | 33.1 |
| MAPK1 (Homo sapiens, UniProt P28482) | 97.1 |
| MARK2 (Homo sapiens, UniProt Q7KZI7) | 9.74 |
| PNCK (Homo sapiens, UniProt Q6P2M8) | 70.5 |
| Cyclin-dependent kinase 1, with cyclin A (CDK1, Homo sapiens, UniProt P06493) | 87.5 |

Study 2
Compound: O=C(NC[C@@H]1[C@H]2CN(C(=O)OCc3cc(C(F)(F)F)cc(C(F)(F)F)c3)C[C@@H]12)c1ccc2[nH]nnc2c1
Effect on: cell-free assay
Method: competition with immobilised ligand
Concentration: 1 µM
| target | remaining binding |
| --- | --- |
| CDK2 (Homo sapiens, UniProt P24941) | 100% |
| Aurora kinase A (AURKA, Homo sapiens, UniProt O14965) | 93% |
| CAMK2D (Homo sapiens, UniProt Q13557) | 100% |
| PIP4K2B (Homo sapiens, UniProt P78356) | 100% |
| EPHA1 (Homo sapiens, UniProt P21709) | 100% |
| RIPK4 (Homo sapiens, UniProt P57078) | 100% |
| NEK4 (Homo sapiens, UniProt P51957) | 84% |
| PKN2 (Homo sapiens, UniProt Q16513) | 93% |

Study 3
Host: mouse
Matrix: microsomes or S9
Concentration: 2 µM
Time: 0.5 h
| SMILES | remaining compound [%] |
| --- | --- |
| O=C(Cn1ccccc1=O)N1C[C@@H]2CC[C@H](C1)N(Cc1cscn1)C2=O | 94.6 |
| Oc1cccc(-c2cn(Cc3ccc4sccc4c3)nn2)c1 | 6.62 |
| COc1ccc(NC(=O)N2CCC3(C2)C(=O)Nc2ccccc23)c(OC)c1 (stereo not shown) | 64.6 |
| c1ccc2c(c1)OCC(c1csc(C3COc4ccccc4O3)n1)O2 (stereo not shown) | 55.9 |
| CCCNc1ccc2ncc(-c3ccc4[nH]ncc4c3)n2n1 | 0.313 |
| Clc1cccnc1N1CCCC(Cn2ccnc2)C1 (stereo not shown) | 69.7 |
| Cc1sc(NC(=O)NCC(CC(C)C)N(C)C)c(C#N)c1C (stereo not shown) | 40.7 |
| Cc1cc(N2C(=O)CC(SCCN)C2=O)no1 (stereo not shown) | 28.7 |
| CC(C)n1nccc1C1CC(=O)Nc2cccc3c2c1cn3Cc1ccccc1 (stereo not shown) | 24.7 |

Study 4
Compound: CO[C@@H]1[C@H](N(C)C(=O)c2ccccc2)C[C@H]2O[C@]1(C)n1c3ccccc3c3c4c(c5c6ccccc6n2c5c31)C(=O)NC4
Effect on: enzyme activity
Mode: inhibitor
Concentration: 1 µM
| target | inhibition |
| --- | --- |
| LRRK2 (Homo sapiens, UniProt Q5S007) | 75% |
| FER (Homo sapiens, UniProt P16591) | 1% |
| STK25 (Homo sapiens, UniProt O00506) | 0% |
| PIK3CA (Homo sapiens, UniProt P42336, Q546K) | 16% |
| MAPK1 (Homo sapiens, UniProt P28482) | 0% |
| RET (Homo sapiens, UniProt P07949, V804M) | 99% |
| CDKL2 (Homo sapiens, UniProt Q92772) | 4% |

Some of these lines once more (study 1):
| target | remaining activity [%] |
| --- | --- |
| MARK4 (Homo sapiens, UniProt Q96L34) | 7.19 |
| AKT2 (Homo sapiens, UniProt P31751) | 86.9 |
| CLK4 (Homo sapiens, UniProt Q9HAZ1) | 16.8 |
| MAP2K1 (Homo sapiens, UniProt Q02750) | 33.1 |
| MAPK1 (Homo sapiens, UniProt P28482) | 97.1 |
